{"data": "Experimental data pooled from the literature", "note": "Parts stem from different laboratories: compare values within a part only."}
{"data": "Sample 1", "cell line": "HEK-293T/ACE2", "tested at": "concentration not given", "time": "16 (unit not given)", "relative to": "vehicle"}
{"Structure (SMILES)": "CN(CCOc1ccc(CC2SC(=O)NC2=O)cc1)c1ccccn1 (centres unmarked)", "viability [%]": 102}
{"Structure (SMILES)": "CCCNC(=O)NS(=O)(=O)c1ccc(Cl)cc1", "viability [%]": 104}
{"Structure (SMILES)": "N[C@@H]1CON=C1O", "viability [%]": 100}
{"Structure (SMILES)": "CCn1nc(C(=O)O)c(=O)c2cc3c(cc21)OCO3", "viability [%]": 101}
{"data": "Sample 2", "target": "RING finger protein unkempt homolog, zinc fingers 1-6, SBP tag (UNK, Homo sapiens, UniProt Q9C0B0, residues 30-357)", "technique": "RNA Bind-n-Seq", "molecule type": "RNA", "medium": "in vitro", "tested at": "100 nM", "setting": "RNA with constant flanks, vertebrate orthologous sites, ends assumed", "relative to": "input RNA pool", "reading": "higher = stronger binding", "all sequences stand within": "GGGAGUUCUACAGUCCGACGAUC … CAACAGAGGAUUGAGCAUCA", "chain of UniProt Q9C0B0 (30-357, looked up)": "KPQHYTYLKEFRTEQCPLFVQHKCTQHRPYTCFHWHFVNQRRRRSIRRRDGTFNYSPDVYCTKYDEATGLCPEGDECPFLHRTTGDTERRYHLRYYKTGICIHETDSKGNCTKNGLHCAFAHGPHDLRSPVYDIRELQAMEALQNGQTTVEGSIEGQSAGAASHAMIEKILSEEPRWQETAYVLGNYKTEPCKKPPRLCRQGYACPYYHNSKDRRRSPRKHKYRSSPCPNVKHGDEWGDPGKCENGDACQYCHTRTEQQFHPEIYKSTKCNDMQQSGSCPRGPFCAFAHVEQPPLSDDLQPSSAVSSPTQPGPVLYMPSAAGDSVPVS"}
{"Oligonucleotide": "AAAUUCCCGCAUUGUCACUGAGAACCACCAAAUCUGACUUUUACAUUUGGUCUCAGAAUUUAGGUUCCUGCCCUGUUGGUUUUUUUUUUUUUUUUUUAAACAGUUUUCAAAAGUUCUUAA", "bound/input enrichment [ratio]": 1.43}
{"Oligonucleotide": "GUUGUGACCCAUUUAACAUACACAAAAAAUUAGCCAAAAAAAAUUUGCAUGUAAUUGACUUAGAUGAUGCCACUUUUCUGAGUGCAAAAUUUGGCAGGCAGCUUGUACCUGGUUGGAAGC", "bound/input enrichment [ratio]": 1.27}
{"Oligonucleotide": "UGGGCAUCCUCUCUGGGGAGCUGCUGGCCGCUUAGCGUUGUUUGACUUUUGACCUUGACAUAGUAGAUAGGCUUGUGGUUUUUUUAAUUUAAAGAUAUUAAGACUUAAUUCACUAAAAUU", "bound/input enrichment [ratio]": 0.71}
{"Oligonucleotide": "UUACAGUCAUUGAUGGACUCUAUUUUUUUAUUAUUACUUGGACUUUGGUCGUUUUUAUACUAGCAAAAUGUCUUGUUUUAAUUUGUGUUUUUUUGGGGGAGGGGGAGGGAGUGAACUUGC", "bound/input enrichment [ratio]": 1.45}
{"Oligonucleotide": "UCUCUCAUUUUGUAUGUCCAAAAAAGGUUUUGAAUUUUUAAACAAUUUGCUAGUUUUGAUUAGCUCUGCCCUCAUGAAGUAUUAUUAUAAUCACCACAAACAGAUAUCUGUCUGAAUUAC", "bound/input enrichment [ratio]": 0.595}
{"Oligonucleotide": "CAGGGAUGGCCCCAAUCCCACCUCUGUUUAUUCUGUAAACUACAACCUGUAAAUAACAUUUAGCAUUCCUAUUGUAACAAAAUUAAUUUUUAUGAAAUAAAUUAUAUUUCCUAGUCUAAU", "bound/input enrichment [ratio]": 1.3}
{"Oligonucleotide": "GUUAGGUCAUGACCCUUACAGAUUAGGUCAUGAUGCCUACAGAUUAGGGCAAGAUCCCUAUAGAUUAGGCCAUGAUCCCUACAGACUAACUCCUGAUCCCUAUAGGAUGUCACCUAGACC", "bound/input enrichment [ratio]": 0.286}
{"Oligonucleotide": "GUUAGGUCAUGACCCUUAUAGGUUAGGUCAUGAUGCCUACAGGUUAGGGCAAGACCCUUAUAGAUUAGGCCAUGAUCCCUACAGACUAACUCCUGAUCCCUAUAGGAUGUCACCUAGACC", "bound/input enrichment [ratio]": 0.429}
{"data": "Sample 3", "target": "Replicase polyprotein 1ab, main protease (rep, Severe acute respiratory syndrome coronavirus 2, UniProt P0DTD1)", "read-out": "enzyme activity", "action": "inhibitor", "tested at": "20 µM", "setting": "hit confirmation"}
{"SMILES": "COC(=O)/C=C/c1cc(O)ccc1O", "inhibition": "52.7%"}
{"SMILES": "O=C(/C=C/c1ccc2ccc(C(F)(F)F)cc2n1)c1ccncc1", "inhibition": "79.2%"}
{"SMILES": "O=C(O)c1cc(N2N=C(C(F)(F)F)/C(=C/c3ccc(-c4ccccc4)o3)C2=O)ccc1Cl", "inhibition": "93.5%"}
{"data": "Sample 4", "target": "RNA binding protein fox-1 homolog 2, RRM domain, GST-SBP tag (RBFOX2, Homo sapiens, UniProt O43251-10, residues 100-194)", "technique": "RNA Bind-n-Seq", "molecule type": "RNA", "medium": "in vitro", "tested at": "365 nM", "setting": "natural RNA segment, single round, ends assumed", "relative to": "no-protein control", "reading": "higher = stronger binding", "all sequences stand within": "GGGAGUUCUACAGUCCGACGAUC … UGGAAUUCUCGGGUGCCAA", "Residues (chain)": "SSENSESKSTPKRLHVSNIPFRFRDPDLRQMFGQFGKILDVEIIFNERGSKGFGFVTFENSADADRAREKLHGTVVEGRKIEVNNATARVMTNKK"}
{"Oligonucleotide": "UUCAUUUCAUUAGUUGGACUUUUAAAGCAUUAUUUAUACACCAUAGAAAUAUUUCUGAACAUAUCAUGUAAUUUUUUUAAGAUAACUGUGAAAACAUUACAUACAUGUAU", "RBNS enrichment (R)": 0.666}
{"Oligonucleotide": "UCUGUUUUAAACAGUAGUAAAAAACUGGCGUUCAAGGCAGAGUCCACAGGUGCUUAAAGGACACUUUCAGAAGAAGCUGAAGGCCUUGAGGUCUGCCCACCCAGCUGAUC", "RBNS enrichment (R)": 0.213}
{"Oligonucleotide": "ACCGUCCUGGUUUAGUGGAUGGGGAGGAUGGGGUGACGGCUUACCAGCUGUAUUAUGUACUGUACUGUACUAGGAGUUCCCUAGUUUGCUAGGUGAGUUUCAUUCUGGAA", "RBNS enrichment (R)": 0.303}
{"Oligonucleotide": "UGAAUCCCAAAGGCCACAUCCAAGACAGGCAAUAAUGAGCAGAGUUUACAGCUCCUUUAAUAAAAUGUGUCAGUAAUUUUAAGGUUUAUAGUUCCCUCAACACAAUUGCU", "RBNS enrichment (R)": 0.392}
{"Oligonucleotide": "AUUUGAAGGAAACAUGCACAAAUCUGUAAAACAUAGACCUUCGCUUUAUUUUUGUAAGUAUCACCUGCCACCAUGUUUUGUAAUUUGAGGUCUUGAUUUCACCAUUGUCG", "RBNS enrichment (R)": 0.551}
{"Oligonucleotide": "ACAUCUCUUCCCUCCAUCUCCUUGUACCCUCUGGCUUACUGUCCUCUCUCUGGCGCACUUUCCUGAAGCCUCUUAUUAACUCCCAUCUCCAGAAGCACCUCAACAAUGUC", "RBNS enrichment (R)": 1.19}
{"Oligonucleotide": "UGUCUGCACUGAUUCAAAGAGGAUUUGUGGGAAAGAAAACUAAAGGCAUGGGUUUCGUCCAAAAAUCAUGAAUUUUUCUAAUUCUACUAUUUUACAACUUGCUGAGACAC", "RBNS enrichment (R)": 0.626}
{"Oligonucleotide": "ACUUGGAAGUGGUGAAUUAUUUUAUAUAAGGUCAUUUAAAUAUCUAUUUAAAAAAUAGGAAGCUGCUUUUAUAUUUAAUAAUAAAAGAAGUGCACAAGCUGCCACGUGUG", "RBNS enrichment (R)": 0.574}
{"data": "Sample 5", "target": "Histone acetyltransferase KAT6A, both winged helices, GST fusion (KAT6A, Homo sapiens, UniProt Q92794, residues 1-181)", "technique": "protein binding microarray", "molecule type": "double-stranded DNA, one strand shown", "medium": "in vitro", "tested at": "not given", "setting": "8-mer, flanks averaged, mean of 2 arrays, mostly near background", "relative to": "not given", "reading": "higher = stronger binding", "Target sequence (chain)": "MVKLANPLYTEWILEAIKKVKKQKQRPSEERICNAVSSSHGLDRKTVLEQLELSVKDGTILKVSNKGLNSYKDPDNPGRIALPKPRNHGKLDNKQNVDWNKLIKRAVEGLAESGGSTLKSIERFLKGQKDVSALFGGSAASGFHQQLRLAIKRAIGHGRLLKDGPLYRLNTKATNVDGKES"}
{"Oligonucleotide": "GGAGCGAC", "E-score": 0.1}
{"Oligonucleotide": "AATACAGG", "E-score": 0.0195}
{"Oligonucleotide": "ACATTAGC", "E-score": 0.0678}
{"Oligonucleotide": "ACTTAGTC", "E-score": 0.0546}
{"Oligonucleotide": "ACGCAAGA", "E-score": 0.0514}
{"Oligonucleotide": "AGCCTAAA", "E-score": -0.245}
{"Oligonucleotide": "CGACATTA", "E-score": 0.038}
{"Oligonucleotide": "GAACTACC", "E-score": -0.0636}
{"data": "Sample 6", "target": "Replicase polyprotein 1ab, polymerase (rep, Severe acute respiratory syndrome coronavirus 2, UniProt P0DTD1)", "read-out": "enzyme activity", "action": "inhibitor", "tested at": "20 µM"}
{"SMILES": "CCNC(=O)N1CCN(CCCC(c2ccc(F)cc2)c2ccc(F)cc2)CC1", "inhibition [%]": 1.86}
{"SMILES": "CC(=O)Oc1ccccc1C(=O)Oc1cccc(CO[N+](=O)[O-])c1", "inhibition [%]": 1.73}
{"SMILES": "COc1ccc(CCN(C)CCc2ccc(OC)c(OC)c2)cc1OC", "inhibition [%]": 2.15}
{"SMILES": "CCNC(=O)[C@@H]1CCCN1C(=O)[C@H](CCCN=C(N)N)NC(=O)[C@H](CC(C)C)NC(=O)[C@@H](C)NC(=O)[C@H](Cc1ccc(O)cc1)NC(=O)[C@H](CO)NC(=O)[C@H](Cc1c[nH]c2ccccc12)NC(=O)[C@H](Cc1cnc[nH]1)NC(=O)[C@@H]1CCC(=O)N1", "inhibition [%]": -4}
{"SMILES": "CN[C@@H]1CCc2[nH]c3ccc(C(N)=O)cc3c2C1", "inhibition [%]": 0.77}
{"SMILES": "COCCN1CCN(Cc2ccc(-c3n[nH]c4c3C(=O)c3c(NC(=O)NN5CCOCC5)cccc3-4)cc2)CC1", "inhibition [%]": 10.1}
{"SMILES": "O=C(c1ccc(F)cc1)C1CCN(CCn2c(=S)[nH]c3ccccc3c2=O)CC1", "inhibition [%]": -6.86}
{"SMILES": "Cc1c(C)c2c(c(C)c1OC(=O)CCC(=O)O)CC[C@@](C)(CCC[C@H](C)CCC[C@H](C)CCCC(C)C)O2", "inhibition [%]": -6.33}
{"SMILES": "CC(C)=CCC[C@](C)(O)[C@@H]1CC=C(C)CC1", "inhibition [%]": -0.69}
{"SMILES": "CC1(C)CC(Oc2ccc(-c3ccc(-c4cn[nH]c4)cc3O)nn2)CC(C)(C)N1", "inhibition [%]": -1.13}
{"SMILES": "CCC[C@@H](NC(=O)N1C(=O)C(CC)(CC)[C@@H]1Oc1ccc(C(=O)N2CCN(C)CC2)cc1)c1ccc2c(c1)OCO2", "inhibition [%]": 1.02}
{"SMILES": "CNCCCC1(c2ccccc2)OC(C)(C)c2ccccc21 (centres unmarked)", "inhibition [%]": -3.45}
{"SMILES": "NC(=O)Nc1sc(-c2ccc(F)cc2)cc1C(N)=O", "inhibition [%]": 5.36}
{"SMILES": "COc1cc(OC)c(C=C2C(=O)Nc3ccccc32)c(OC)c1", "inhibition [%]": 6.67}
{"SMILES": "C[C@H](NCc1ccc(OCc2ccccc2F)cc1)C(N)=O", "inhibition [%]": 2.84}
{"SMILES": "Cc1cc(-c2cc(O)ccc2Cl)cc2nnc(Nc3ccc(OCCN4CCCC4)cc3)nc12", "inhibition [%]": 29.4}
{"SMILES": "CC(=O)OCC(=O)[C@@]12N=C(C)O[C@@H]1C[C@H]1[C@@H]3CCC4=CC(=O)C=C[C@]4(C)[C@H]3[C@@H](O)C[C@@]12C", "inhibition [%]": -2.83}
{"SMILES": "NC(=O)c1nnn(Cc2cc(Cl)c(C(=O)c3ccc(Cl)cc3)c(Cl)c2)c1N", "inhibition [%]": -2.17}
{"SMILES": "Cc1ncc(C[n+]2csc(CCO)c2C)c(N)n1", "inhibition [%]": -1.78}
{"SMILES": "O=C(O)[C@@H]1C[C@@H](C2CCCCC2)CN1C(=O)CP(=O)(O)CCCCc1ccccc1", "inhibition [%]": 7.24}
{"SMILES": "COc1cc(OC)cc(-c2ccc3c(-c4ccc(F)cc4)[nH]nc3n2)c1", "inhibition [%]": 0.07}
{"SMILES": "CC(=O)O[C@H]1C(=O)[C@@]2(C)[C@H]([C@H](OC(=O)c3ccccc3)[C@]3(O)C[C@H](OC(=O)[C@H](O)[C@@H](NC(=O)c4ccccc4)c4ccccc4)C(C)=C1C3(C)C)[C@]1(OC(C)=O)CO[C@@H]1C[C@@H]2O", "inhibition [%]": 3.89}
{"SMILES": "C[C@@H](CN1CC(=O)NC(=O)C1)N1CC(=O)NC(=O)C1", "inhibition [%]": 11.7}
{"SMILES": "CCN(CC)C(=S)S", "inhibition [%]": -5.73}
{"SMILES": "Cc1cc(O)cc(C)c1Cl", "inhibition [%]": 3.66}
{"note": "For quick reference, copied from above (sample 6):"}
{"SMILES": "CC1(C)CC(Oc2ccc(-c3ccc(-c4cn[nH]c4)cc3O)nn2)CC(C)(C)N1", "inhibition [%]": -1.13}
{"SMILES": "CCC[C@@H](NC(=O)N1C(=O)C(CC)(CC)[C@@H]1Oc1ccc(C(=O)N2CCN(C)CC2)cc1)c1ccc2c(c1)OCO2", "inhibition [%]": 1.02}
{"SMILES": "COCCN1CCN(Cc2ccc(-c3n[nH]c4c3C(=O)c3c(NC(=O)NN5CCOCC5)cccc3-4)cc2)CC1", "inhibition [%]": 10.1}
{"SMILES": "CC(=O)Oc1ccccc1C(=O)Oc1cccc(CO[N+](=O)[O-])c1", "inhibition [%]": 1.73}
{"SMILES": "COc1ccc(CCN(C)CCc2ccc(OC)c(OC)c2)cc1OC", "inhibition [%]": 2.15}
{"SMILES": "CCNC(=O)[C@@H]1CCCN1C(=O)[C@H](CCCN=C(N)N)NC(=O)[C@H](CC(C)C)NC(=O)[C@@H](C)NC(=O)[C@H](Cc1ccc(O)cc1)NC(=O)[C@H](CO)NC(=O)[C@H](Cc1c[nH]c2ccccc12)NC(=O)[C@H](Cc1cnc[nH]1)NC(=O)[C@@H]1CCC(=O)N1", "inhibition [%]": -4}
{"SMILES": "Cc1c(C)c2c(c(C)c1OC(=O)CCC(=O)O)CC[C@@](C)(CCC[C@H](C)CCC[C@H](C)CCCC(C)C)O2", "inhibition [%]": -6.33}
